# Published values collected from several papers.
# A part holds a random share of what one study measured. Values joined by “and” are separate records of one study, mostly repeats; a detail may differ. ± gives the spread as reported.

# Study 1 — time: 18 h; temperature: 37 °C
# SMILES: CC[C@H](C)[C@H](NC(=O)[C@H](CCCCN)NC(=O)[C@H](CCC(N)=O)NC(=O)[C@H](Cc1ccccc1)NC(=O)[C@@H](NC(=O)[C@H](CCCCN)NC(=O)[C@H](CCCCN)NC(=O)[C@H](CC(C)C)NC(=O)[C@H](C)NC(=O)[C@H](CC(N)=O)NC(=O)[C@@H](N)CC(C)C)C(C)C)C(=O)N[C@@H](Cc1c[nH]cn1)C(=O)N[C@@H](CCC(=O)O)C(=O)N[C@@H](C)C(N)=O
organism,assay,system,MIC
Pseudomonas aeruginosa,,"4007, resistant",16 µM
Acinetobacter baumannii,broth microdilution,ATCC 19606,32 µM
Bacillus subtilis,,KCTC 1998,16 µM
Escherichia coli,,"CCARM 1238, resistant",16 µM

# Further values, each from its own experiment
# IGHG1: Immunoglobulin heavy constant gamma 1 (IGHG1, Homo sapiens, UniProt P01857)
SMILES,tested on,assay,system,conditions,measurement,result
CCCC[C@H]1NC(=O)[C@H](Cc2ccc(F)cc2)NC(=O)[C@H](CCCNC(=N)N)NC(=O)[C@@H](Cc2ccc3ccccc3c2)NC(=O)[C@H](CCCNC(=N)N)NC(=O)[C@H](CCCNC(=N)N)NC(=O)[C@H](CCC(N)=O)NC(=O)C[C@@H](CCc2ccccc2)NC(=O)[C@@H]2CCCCN2C(=O)C(=O)C(C)(C)COC1=O,MBP-fused viral VP35,fluorescence polarization,,up to 20 µM,binding,no binding
CC(=O)NCC(=O)N1CCC[C@H]1C(=O)N[C@@H](CC(=O)O)C(=O)N[C@H]1CSSC[C@@H](C(=O)N[C@H](C(=O)N[C@@H](Cc2ccccc2)C(=O)N[C@@H](Cc2c[nH]cn2)C(N)=O)[C@@H](C)O)NC(=O)[C@H](Cc2c[nH]c3ccccc23)NC(=O)[C@H](C(C)C)NC(=O)[C@H](CC(C)C)NC(=O)[C@H](CCC(=O)O)NC(=O)[C@H](C)NC(=O)[C@H](CCCCN)NC(=O)[C@H](Cc2c[nH]cn2)NC(=O)[C@H](Cc2ccc(O)cc2)NC(=O)[C@H](C)NC1=O,IGHG1,"binding, SPR",,"pH 7.4, added: immobilized Herceptin",Kd,1.72 ± 0.005 µM
CCN(CC)C(=O)OCc1ccc(S(=O)(=O)CC(C[C@H]2O[C@@H]3C[C@]4(C)CC[C@H]5[C@H](C)CC[C@@H]([C@H]2C)[C@@]35OO4)C[C@H]2O[C@@H]3C[C@]4(C)CC[C@H]5[C@H](C)CC[C@@H]([C@H]2C)[C@@]35OO4)cc1,Plasmodium berghei,,"ANKA, infected mice","oral, 54 mg/kg single dose, 24 h post-infection",mean survival time,16.4 days
CC(=O)N[C@H]1CSSC[C@@H](C(=O)N[C@H](C(=O)N[C@@H](Cc2ccccc2)C(=O)N[C@@H](Cc2c[nH]cn2)C(N)=O)[C@@H](C)O)NC(=O)[C@H](Cc2c[nH]c3ccccc23)NC(=O)[C@H](C(C)C)NC(=O)[C@H](CC(C)C)NC(=O)[C@H](CCC(=O)O)NC(=O)CNC(=O)[C@H](CCCCN)NC(=O)[C@H](Cc2c[nH]cn2)NC(=O)[C@H](Cc2ccc(O)cc2)NC(=O)[C@H](C)NC1=O,IGHG1,"binding, SPR",,"pH 7.4, added: immobilized Herceptin",Kd,1.47 ± 0.01 µM
C[C@H]1[C@@H](CC(C[C@H]2O[C@@H]3C[C@]4(C)CC[C@H]5[C@H](C)CC[C@@H]([C@H]2C)[C@@]35OO4)CS(=O)(=O)c2ccc(CO)cc2)O[C@@H]2C[C@]3(C)CC[C@H]4[C@H](C)CC[C@@H]1[C@@]24OO3 (some centres unmarked),Plasmodium berghei,,"ANKA, infected mice","oral, 72 mg/kg single dose",mean survival time,23 to 25 days and 25 days
CC(=O)NCC(=O)N1CCC[C@H]1C(=O)N[C@@H](CC(=O)O)C(=O)N[C@H]1CSSC[C@@H](C(=O)N[C@H](C(=O)N[C@@H](Cc2ccccc2)C(=O)N[C@@H](Cc2c[nH]cn2)C(N)=O)[C@@H](C)O)NC(=O)[C@H](Cc2c[nH]c3ccccc23)NC(=O)[C@H](C(C)C)NC(=O)[C@H](CC(C)C)NC(=O)[C@H](CCC(=O)O)NC(=O)CNC(=O)[C@H](C)NC(=O)[C@H](Cc2c[nH]cn2)NC(=O)[C@H](Cc2ccc(O)cc2)NC(=O)[C@H](C)NC1=O,IGHG1,"binding, SPR",,"pH 7.4, added: immobilized Herceptin",Kd,0.171 ± 0.004 µM
C[C@H]1[C@@H](CC(C[C@H]2O[C@@H]3C[C@]4(C)CC[C@H]5[C@H](C)CC[C@@H]([C@H]2C)[C@@]35OO4)CS(=O)(=O)CCCCCCO)O[C@@H]2C[C@]3(C)CC[C@H]4[C@H](C)CC[C@@H]1[C@@]24OO3 (some centres unmarked),Plasmodium berghei,,"ANKA, infected mice","oral, 54 mg/kg single dose, 24 h post-infection",mean survival time,11 days
